Published values of several laboratories.
“And” joins repeats or separate records; there may be more than shown.
Target: Ephrin type-B receptor 4 (EPHB4, Homo sapiens, UniProt P54760)
Residues used in one study (P54760 16-987): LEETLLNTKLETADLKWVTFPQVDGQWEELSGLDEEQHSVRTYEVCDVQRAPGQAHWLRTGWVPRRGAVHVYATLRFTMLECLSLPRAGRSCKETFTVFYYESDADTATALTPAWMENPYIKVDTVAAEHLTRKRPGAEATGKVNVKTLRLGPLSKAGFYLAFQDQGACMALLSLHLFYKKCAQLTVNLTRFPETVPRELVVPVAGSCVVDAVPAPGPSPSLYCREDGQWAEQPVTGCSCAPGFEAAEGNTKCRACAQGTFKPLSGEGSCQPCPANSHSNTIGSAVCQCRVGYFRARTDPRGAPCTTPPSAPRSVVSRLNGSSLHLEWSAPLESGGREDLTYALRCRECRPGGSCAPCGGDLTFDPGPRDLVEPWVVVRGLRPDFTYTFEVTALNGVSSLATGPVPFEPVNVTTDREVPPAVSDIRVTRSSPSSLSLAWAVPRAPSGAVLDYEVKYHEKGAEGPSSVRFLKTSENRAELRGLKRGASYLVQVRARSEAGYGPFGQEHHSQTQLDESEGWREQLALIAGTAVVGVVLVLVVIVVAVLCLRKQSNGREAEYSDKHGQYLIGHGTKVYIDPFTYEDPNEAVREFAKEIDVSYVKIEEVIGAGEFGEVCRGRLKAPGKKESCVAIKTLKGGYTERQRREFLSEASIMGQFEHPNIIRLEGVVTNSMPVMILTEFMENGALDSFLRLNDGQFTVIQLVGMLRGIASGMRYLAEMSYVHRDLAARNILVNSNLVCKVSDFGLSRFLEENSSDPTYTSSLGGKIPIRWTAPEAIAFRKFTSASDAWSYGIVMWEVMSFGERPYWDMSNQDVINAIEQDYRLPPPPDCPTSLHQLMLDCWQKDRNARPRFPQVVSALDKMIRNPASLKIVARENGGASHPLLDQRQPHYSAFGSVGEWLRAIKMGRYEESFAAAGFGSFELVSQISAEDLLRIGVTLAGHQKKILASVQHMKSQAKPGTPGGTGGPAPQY

| Compound | test | test system | conditions | how to read | quantity | result |
| --- | --- | --- | --- | --- | --- | --- |
| C=CC(=O)Nc1cc(-c2nn(C3CCN(CCNC(=O)[C@H](C)CCC45CC6CC(CC(C6)C4)C5)CC3)c3ncnc(N)c23)ccc1Oc1ccccc1 | inhibitor, KiNativ profiling | biochemical | 2 µM |  | inhibition | 16.4% |
| Cc1ccc(-c2c(/C=C(\C#N)C(=O)NC(C)C)n(CCCO)c3ncnc(N)c23)cc1 | cell-free assay, competition with immobilised ligand |  | 1 µM |  | remaining binding | 75% |
| O=C(Cc1ccc(OCc2ccccc2)cc1)NC1(C(=O)O)CCN(C(=O)c2ccc(-c3cccc(Cl)c3)cc2)CC1 | enzyme activity, inhibitor |  | 10 µM |  | activity vs control | 109% |
| COc1cc(Nc2nccc(-c3cnn4nc(OC)ccc34)n2)cc(C(F)(F)F)c1 | binding, competition with immobilised ligand |  | 1 µM |  | remaining binding | 92% |
| NC(=O)[C@@H](O)C[C@H]1CCc2sc3ncnc(O[C@H]4CC[C@H](N5CCOCC5)CC4)c3c21 | enzyme activity, inhibitor |  | 10 µM |  | inhibition | 32% |
| CN1CC[C@@H](COc2cnc(C#N)cc2-c2ccn3nc(NC(=O)C4CC4)cc3c2)C1 | enzyme activity, inhibitor |  | 1 µM |  | inhibition | 5% |
| CCN1CCN(Cc2ccc(NC(=O)c3ccc(C)c(NC(=O)c4cncc(-c5cccs5)c4)c3)cc2C(F)(F)F)CC1 | binding, competition with immobilised ligand |  | 1 µM |  | remaining binding | 13% |
| CNC(=O)C1CCN(c2cc(C)c(F)cc2NC(=O)c2ccc(-c3cc(O)ccc3C)c(C)c2)CC1 | binding, competition with immobilised ligand |  | 1 µM |  | remaining binding | 0.85% |
| CCn1cc(C(=O)O)c(=O)c2c(N)c(F)c(NC3CCCCC3)cc21 | kinase activity |  | 0.1 µM, added: ATP at Km |  | inhibition | 3.1% |
| CC(C)=CC1OC(C)(C)C2C=C3C(=O)C(Cl)=CC(O)C3C3C(O)C4OC4C(=O)C132 (stereo not drawn) | cell-free assay, competition with immobilised ligand |  | 10 µM |  | remaining binding | 77% |
| O=C(O)CCC(=O)c1cccc(NS(=O)(=O)c2c[nH]c3ncccc23)c1 | kinase activity, radiometric |  | 10 µM |  | remaining activity | 88% |
| COCC12C(=O)NC3C4(C(OC)CC1O)C1CC5(O)C(OC)C(O)C(OC(C)=O)(C1C5OC(=O)c1ccccc1)C3(O)C(OC)C24 (stereo not drawn) | kinase activity, inhibitor, ProQinase kinase profiling |  | 25 µM | baseline: control | remaining activity | 105% and 114% |

A few entries again:
| Compound | test | test system | conditions | how to read | quantity | result |
| --- | --- | --- | --- | --- | --- | --- |
| CN1CC[C@@H](COc2cnc(C#N)cc2-c2ccn3nc(NC(=O)C4CC4)cc3c2)C1 | enzyme activity, inhibitor |  | 1 µM |  | inhibition | 5% |
